{"data": "Results pooled from the literature", "note": "Parts stem from different laboratories: compare values within a part only. Changes are numbered by the printed parent chain."}
{"data": "Set 1", "target": "CCNB1, cyclin fold, Cln2 fusion (human)", "method": "yeast growth competition, sequencing", "matrix": "yeast", "setting": "strong parent motif", "reference": "not given", "direction": "higher = stronger binding", "starting sequence": "INSM1 docking peptide (human); PKAIRKLHFEDEV; partner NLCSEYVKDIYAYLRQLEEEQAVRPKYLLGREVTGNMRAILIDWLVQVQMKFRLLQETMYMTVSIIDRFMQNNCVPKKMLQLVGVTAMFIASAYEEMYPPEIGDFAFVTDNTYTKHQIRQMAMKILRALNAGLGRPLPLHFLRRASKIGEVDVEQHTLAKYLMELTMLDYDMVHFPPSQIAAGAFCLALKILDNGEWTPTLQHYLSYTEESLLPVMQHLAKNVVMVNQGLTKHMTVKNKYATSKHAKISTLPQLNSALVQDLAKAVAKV"}
{"Change": "H8L", "normalised enrichment score": 2.93}
{"Change": "D11F", "normalised enrichment score": 0.988}
{"Change": "R5V", "normalised enrichment score": 1.04}
{"Change": "D11L", "normalised enrichment score": 0.944}
{"Change": "F9K", "normalised enrichment score": -0.179}
{"Change": "K2S", "normalised enrichment score": 4.22}
{"Change": "E12W", "normalised enrichment score": 0.94}
{"Change": "E10N", "normalised enrichment score": 1.44}
{"data": "Set 2", "target": "Sal-like protein 4, full length isoform B (SALL4, Homo sapiens, UniProt Q9UJQ4-2, residues 1-616)", "method": "universal PBM", "form": "double-stranded DNA, one strand shown", "matrix": "in vitro", "tested at": "not given", "setting": "8-mer, flanks averaged, mean of replicates", "direction": "higher = stronger binding", "Residues (chain)": "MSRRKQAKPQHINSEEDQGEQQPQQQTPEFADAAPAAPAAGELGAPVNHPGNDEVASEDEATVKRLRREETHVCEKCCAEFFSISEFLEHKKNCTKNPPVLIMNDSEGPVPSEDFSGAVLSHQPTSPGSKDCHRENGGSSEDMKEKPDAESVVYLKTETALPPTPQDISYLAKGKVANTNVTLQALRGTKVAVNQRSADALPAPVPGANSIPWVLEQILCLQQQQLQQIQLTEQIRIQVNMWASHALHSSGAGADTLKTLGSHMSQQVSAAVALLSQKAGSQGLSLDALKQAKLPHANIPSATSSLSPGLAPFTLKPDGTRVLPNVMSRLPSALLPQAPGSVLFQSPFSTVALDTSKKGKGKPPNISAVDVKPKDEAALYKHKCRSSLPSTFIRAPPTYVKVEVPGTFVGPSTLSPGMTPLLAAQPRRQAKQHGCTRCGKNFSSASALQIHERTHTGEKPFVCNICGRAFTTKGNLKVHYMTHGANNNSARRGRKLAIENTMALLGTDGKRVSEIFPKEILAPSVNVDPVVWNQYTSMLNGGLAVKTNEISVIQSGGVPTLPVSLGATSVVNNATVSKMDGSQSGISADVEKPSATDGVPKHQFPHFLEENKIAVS"}
{"Strand": "ACTGCAAT", "E-score": 0.0619}
{"Strand": "GGCCGGAA", "E-score": -0.169}
{"Strand": "ACGCGCCC", "E-score": -0.209}
{"Strand": "CGAGTCCC", "E-score": -0.136}
{"Strand": "CCGCATTA", "E-score": 0.0989}
{"Strand": "AATGATTC", "E-score": 0.324}
{"Strand": "ATATCTGC", "E-score": 0.163}
{"Strand": "CCTGTCGC", "E-score": -0.244}
{"data": "Set 3", "target": "Ras GTPase-activating protein-binding protein 1, RRM domain (G3BP1, Homo sapiens, UniProt Q13283)", "method": "RNA Bind-n-Seq", "form": "RNA", "matrix": "in vitro", "tested at": "1 µM", "setting": "whole 134-nt RNA, ends assumed", "with": "150 mM KCl", "reference": "input library", "direction": "higher = stronger binding", "shared flanks, not repeated": "GGGAGUUCUACAGUCCGACGAUC … UGGAAUUCUCGGGUGUCAAGG", "chain of UniProt Q13283 (whole entry, looked up)": "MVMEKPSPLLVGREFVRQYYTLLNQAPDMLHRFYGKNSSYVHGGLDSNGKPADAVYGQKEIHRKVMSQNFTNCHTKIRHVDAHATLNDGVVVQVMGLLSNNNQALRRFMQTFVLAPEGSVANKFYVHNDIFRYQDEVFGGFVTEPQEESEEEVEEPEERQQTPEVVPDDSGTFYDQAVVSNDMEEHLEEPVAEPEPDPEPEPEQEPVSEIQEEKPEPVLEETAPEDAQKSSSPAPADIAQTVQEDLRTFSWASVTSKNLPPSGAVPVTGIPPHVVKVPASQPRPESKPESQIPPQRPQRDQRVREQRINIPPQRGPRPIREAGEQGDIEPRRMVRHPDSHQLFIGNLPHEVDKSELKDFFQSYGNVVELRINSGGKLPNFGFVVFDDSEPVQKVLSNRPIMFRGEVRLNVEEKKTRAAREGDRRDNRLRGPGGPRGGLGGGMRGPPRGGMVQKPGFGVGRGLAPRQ"}
{"Strand": "AGUCCUGUGCUACACAUCGUAUGUACCGAAUCGGAAAGGUUUUUUUGGUUUUUUUGGAAAGUAUUAUGUUACGCCGUUCGGAUCUGCACU", "log2 enrichment": -0.489}
{"Strand": "ACCAUGCAGGUGGGCAUCUUUGGGAAGUGGGGCAAGGGUGGGAUAGGGAGGGGGGUAACACUUUGGGAACAGGUGGUCCCAGGUCGUUUC", "log2 enrichment": -0.704}
{"Strand": "AGUCCUGUGCUACACAUCGUAUGUACCGAAUCGGGAAAAGGGAAAAGGGGAAAAGGGAAAGUAUUAUGUUACGCCGUUCGGAUCUGCACU", "log2 enrichment": 0.51}
{"Strand": "CUGUGCUACACAUCGUAUGUACCGAAUCGGGCCCCCCCGGGGCCCCCCCGGCCCCCCCGGGAAAGUAUUAUGUUACGCCGUUCGGAUCUG", "log2 enrichment": -0.533}
{"Strand": "CACAGACAACACGCACCCACACAGACACAGAGGGAAGGGUUUGGGAUGGGGACAGGGUGCACAGCAGGGCGGGGUAGGACCCCAGCCCCU", "log2 enrichment": -0.103}
{"Strand": "UGGGGUCUGCGUACGCCUGGAGUCCUUCCCCGCUGUGCUCAGCAUGGACCCUAUCCGGAGCUUCUGCGGGAAGCUGCGGUCUCUGGCCAG", "log2 enrichment": -0.509}
{"Strand": "UCAAGUCCUGUGCUACACAUCGUAUGUACCGAAUCGGCCCGGGCCCGGGGCCCGGAAAGUAUUAUGUUACGCCGUUCGGAUCUGCACUUC", "log2 enrichment": -0.551}
{"Strand": "UCAAGUCCUGUGCUACACAUCGUAUGUACCGAAUCGGGAAGGGGAAGGGGAAGGAAAGUAUUAUGUUACGCCGUUCGGAUCUGCACUUCC", "log2 enrichment": -0.157}
{"data": "Other studies, line by line"}
{"SMILES": "CCC(Oc1ccccc1)C(=O)Nc1cccc2c1CCCC2 (stereo not shown)", "species": "mouse", "matrix": "microsomes or S9", "tested at": "2 µM", "time": "0.5 h", "measurement": "remaining compound", "value": "0.536%"}
